{"data": "Measured values collected from several papers", "note": "Each numbered part is a random draw from the data of one study; scales do not carry over between parts. Substitutions count along the parent as printed.", "sequence of UniProt P49761 (whole entry, looked up)": "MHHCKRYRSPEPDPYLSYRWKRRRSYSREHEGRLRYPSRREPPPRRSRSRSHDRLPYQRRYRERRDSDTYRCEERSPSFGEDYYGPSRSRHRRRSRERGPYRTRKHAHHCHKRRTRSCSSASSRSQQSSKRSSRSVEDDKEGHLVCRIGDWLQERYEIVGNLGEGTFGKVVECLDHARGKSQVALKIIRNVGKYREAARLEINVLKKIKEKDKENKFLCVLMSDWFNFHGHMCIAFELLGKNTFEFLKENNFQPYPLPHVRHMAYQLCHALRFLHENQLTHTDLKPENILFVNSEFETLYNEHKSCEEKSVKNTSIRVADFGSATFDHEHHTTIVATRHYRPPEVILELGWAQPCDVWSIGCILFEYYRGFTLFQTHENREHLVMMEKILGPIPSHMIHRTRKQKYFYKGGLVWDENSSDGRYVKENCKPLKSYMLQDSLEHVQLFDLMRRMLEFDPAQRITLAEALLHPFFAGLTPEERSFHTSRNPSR", "sequence of UniProt Q6P2M8 (whole entry, looked up)": "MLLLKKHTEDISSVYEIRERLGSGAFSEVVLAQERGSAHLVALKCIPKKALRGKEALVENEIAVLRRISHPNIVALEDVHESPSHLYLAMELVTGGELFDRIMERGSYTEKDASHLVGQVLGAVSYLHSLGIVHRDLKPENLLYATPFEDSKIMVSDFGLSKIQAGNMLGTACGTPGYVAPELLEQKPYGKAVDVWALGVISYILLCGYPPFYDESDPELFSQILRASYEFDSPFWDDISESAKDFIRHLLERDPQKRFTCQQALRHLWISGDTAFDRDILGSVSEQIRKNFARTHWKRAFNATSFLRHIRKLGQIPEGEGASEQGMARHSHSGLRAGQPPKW", "sequence of UniProt Q13237 (whole entry, looked up)": "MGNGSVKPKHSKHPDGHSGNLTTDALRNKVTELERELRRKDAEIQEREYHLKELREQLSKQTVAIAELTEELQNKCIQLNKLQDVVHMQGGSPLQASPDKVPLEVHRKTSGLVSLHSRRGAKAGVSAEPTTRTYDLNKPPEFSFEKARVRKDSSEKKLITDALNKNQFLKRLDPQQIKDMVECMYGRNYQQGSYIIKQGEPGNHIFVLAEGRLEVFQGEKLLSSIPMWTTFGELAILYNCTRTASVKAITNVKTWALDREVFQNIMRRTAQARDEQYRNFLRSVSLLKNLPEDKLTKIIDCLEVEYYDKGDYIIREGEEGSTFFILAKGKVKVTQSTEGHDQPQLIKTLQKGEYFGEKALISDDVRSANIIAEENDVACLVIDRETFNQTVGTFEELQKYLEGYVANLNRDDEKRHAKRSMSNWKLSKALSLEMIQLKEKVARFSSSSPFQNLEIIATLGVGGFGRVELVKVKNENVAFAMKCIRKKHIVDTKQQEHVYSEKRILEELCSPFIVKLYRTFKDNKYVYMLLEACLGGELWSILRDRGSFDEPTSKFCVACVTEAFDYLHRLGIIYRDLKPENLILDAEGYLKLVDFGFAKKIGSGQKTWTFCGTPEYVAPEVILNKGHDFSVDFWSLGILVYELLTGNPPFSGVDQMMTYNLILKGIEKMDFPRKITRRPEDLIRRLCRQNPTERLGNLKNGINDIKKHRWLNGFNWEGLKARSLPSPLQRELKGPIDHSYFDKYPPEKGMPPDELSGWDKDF", "sequence of UniProt O75676 (whole entry, looked up)": "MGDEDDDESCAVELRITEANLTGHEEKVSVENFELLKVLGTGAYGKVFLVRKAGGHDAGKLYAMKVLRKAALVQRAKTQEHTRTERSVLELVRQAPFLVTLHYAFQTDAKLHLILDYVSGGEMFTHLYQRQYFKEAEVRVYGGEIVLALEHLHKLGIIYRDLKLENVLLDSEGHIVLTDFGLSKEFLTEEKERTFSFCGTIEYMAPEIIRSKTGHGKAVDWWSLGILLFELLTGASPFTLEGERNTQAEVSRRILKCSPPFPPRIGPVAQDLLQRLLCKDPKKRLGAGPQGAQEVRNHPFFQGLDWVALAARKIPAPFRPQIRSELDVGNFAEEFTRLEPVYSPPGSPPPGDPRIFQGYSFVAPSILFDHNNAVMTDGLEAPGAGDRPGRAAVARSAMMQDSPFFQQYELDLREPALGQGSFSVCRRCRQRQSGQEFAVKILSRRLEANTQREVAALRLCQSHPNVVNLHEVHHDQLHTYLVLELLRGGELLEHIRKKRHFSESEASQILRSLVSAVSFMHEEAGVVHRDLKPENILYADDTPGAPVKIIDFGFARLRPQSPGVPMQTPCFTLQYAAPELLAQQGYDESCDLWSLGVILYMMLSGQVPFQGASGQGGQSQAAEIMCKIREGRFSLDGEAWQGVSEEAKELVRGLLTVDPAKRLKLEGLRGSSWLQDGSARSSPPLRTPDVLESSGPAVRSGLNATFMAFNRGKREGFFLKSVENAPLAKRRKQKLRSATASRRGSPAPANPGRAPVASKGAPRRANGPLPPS", "sequence of UniProt Q8N568 (whole entry, looked up)": "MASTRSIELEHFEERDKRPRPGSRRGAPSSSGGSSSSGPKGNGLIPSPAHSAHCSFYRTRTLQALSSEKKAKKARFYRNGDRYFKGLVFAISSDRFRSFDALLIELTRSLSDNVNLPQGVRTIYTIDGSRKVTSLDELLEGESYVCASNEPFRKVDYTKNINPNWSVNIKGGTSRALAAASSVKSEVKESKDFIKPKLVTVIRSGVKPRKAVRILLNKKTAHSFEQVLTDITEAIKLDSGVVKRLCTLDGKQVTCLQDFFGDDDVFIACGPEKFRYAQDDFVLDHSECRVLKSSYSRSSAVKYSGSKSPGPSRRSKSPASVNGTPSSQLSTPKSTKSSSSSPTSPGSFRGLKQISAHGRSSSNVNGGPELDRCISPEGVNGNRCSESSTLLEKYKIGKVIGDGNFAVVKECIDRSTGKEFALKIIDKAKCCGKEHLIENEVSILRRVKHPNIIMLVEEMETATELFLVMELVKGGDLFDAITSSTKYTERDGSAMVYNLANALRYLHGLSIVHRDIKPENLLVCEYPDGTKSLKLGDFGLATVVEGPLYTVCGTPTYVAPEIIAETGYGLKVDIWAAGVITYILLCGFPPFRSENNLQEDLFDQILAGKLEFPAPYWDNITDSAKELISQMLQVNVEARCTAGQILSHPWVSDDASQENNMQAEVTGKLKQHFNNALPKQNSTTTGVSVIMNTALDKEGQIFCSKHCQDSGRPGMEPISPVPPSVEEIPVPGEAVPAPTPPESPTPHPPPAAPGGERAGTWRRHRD", "sequence of UniProt P06493 (whole entry, looked up)": "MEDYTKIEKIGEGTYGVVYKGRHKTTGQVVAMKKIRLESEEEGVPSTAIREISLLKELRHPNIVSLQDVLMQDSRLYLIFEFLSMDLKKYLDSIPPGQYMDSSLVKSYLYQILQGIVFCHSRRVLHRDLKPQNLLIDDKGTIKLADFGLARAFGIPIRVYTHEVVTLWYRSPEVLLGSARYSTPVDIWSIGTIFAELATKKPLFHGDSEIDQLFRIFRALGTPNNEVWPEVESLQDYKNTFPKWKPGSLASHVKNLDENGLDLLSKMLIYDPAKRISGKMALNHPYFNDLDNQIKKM", "sequence of UniProt P50750 (whole entry, looked up)": "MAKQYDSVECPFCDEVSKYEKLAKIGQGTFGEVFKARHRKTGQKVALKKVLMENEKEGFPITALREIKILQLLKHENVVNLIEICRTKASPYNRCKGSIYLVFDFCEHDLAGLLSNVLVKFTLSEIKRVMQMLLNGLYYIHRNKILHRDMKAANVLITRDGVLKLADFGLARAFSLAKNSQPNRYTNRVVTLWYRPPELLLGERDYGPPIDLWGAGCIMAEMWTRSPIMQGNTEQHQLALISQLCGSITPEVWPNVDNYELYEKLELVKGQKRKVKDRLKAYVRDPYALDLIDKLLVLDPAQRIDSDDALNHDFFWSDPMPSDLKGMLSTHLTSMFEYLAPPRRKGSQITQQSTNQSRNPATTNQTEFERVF", "sequence of UniProt Q7KZI7 (whole entry, looked up)": "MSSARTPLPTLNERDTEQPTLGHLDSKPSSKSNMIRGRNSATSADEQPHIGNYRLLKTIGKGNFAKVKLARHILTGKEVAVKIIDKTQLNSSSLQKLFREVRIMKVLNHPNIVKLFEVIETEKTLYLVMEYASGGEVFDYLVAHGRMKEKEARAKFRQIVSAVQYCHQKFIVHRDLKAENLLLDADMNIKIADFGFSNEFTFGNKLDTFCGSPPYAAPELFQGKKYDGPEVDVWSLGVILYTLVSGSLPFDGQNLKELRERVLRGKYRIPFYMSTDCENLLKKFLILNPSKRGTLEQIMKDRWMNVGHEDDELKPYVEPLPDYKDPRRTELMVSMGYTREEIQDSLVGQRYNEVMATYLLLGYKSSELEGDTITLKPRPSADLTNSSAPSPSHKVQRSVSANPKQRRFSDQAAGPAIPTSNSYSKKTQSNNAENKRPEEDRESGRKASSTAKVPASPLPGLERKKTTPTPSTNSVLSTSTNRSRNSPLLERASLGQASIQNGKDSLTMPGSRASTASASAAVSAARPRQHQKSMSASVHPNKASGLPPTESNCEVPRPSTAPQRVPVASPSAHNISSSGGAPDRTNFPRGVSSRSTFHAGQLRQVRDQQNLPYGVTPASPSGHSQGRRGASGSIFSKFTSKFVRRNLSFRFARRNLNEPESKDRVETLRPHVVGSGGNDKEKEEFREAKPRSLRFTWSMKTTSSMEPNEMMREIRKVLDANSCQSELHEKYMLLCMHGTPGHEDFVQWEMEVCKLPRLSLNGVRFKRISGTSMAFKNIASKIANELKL"}
{"data": "Set 1", "SMILES": "c1cc(-c2cnn3cc(-c4ccc(OCCN5CCCCC5)cc4)cnc23)ccn1", "effect on": "enzyme activity", "action": "inhibitor", "tested at": "0.5 µM", "relative to": "control"}
{"target": "Vascular endothelial growth factor receptor 2 (KDR, Homo sapiens, UniProt P35968)", "remaining activity": "22.2%"}
{"target": "Hepatocyte growth factor receptor (MET, Homo sapiens, UniProt P08581)", "remaining activity": "91.1%"}
{"target": "Cyclin-dependent kinase 1, with cyclin A (CDK1, Homo sapiens, UniProt P06493)", "remaining activity": "92.2%"}
{"target": "Ribosomal protein S6 kinase alpha-4 (RPS6KA4, Homo sapiens, UniProt O75676)", "remaining activity": "89.2%"}
{"target": "Serine/threonine-protein kinase DCLK2 (DCLK2, Homo sapiens, UniProt Q8N568)", "remaining activity": "94.1%"}
{"target": "RAC-beta serine/threonine-protein kinase (AKT2, Homo sapiens, UniProt P31751)", "remaining activity": "87.6%"}
{"target": "cGMP-dependent protein kinase 2 (PRKG2, Homo sapiens, UniProt Q13237)", "remaining activity": "77.4%"}
{"target": "Cyclin-dependent kinase 9, with cyclin K (CDK9, Homo sapiens, UniProt P50750)", "remaining activity": "36.7%"}
{"target": "Dual specificity protein kinase CLK3 (CLK3, Homo sapiens, UniProt P49761)", "remaining activity": "92.2%"}
{"target": "Serine/threonine-protein kinase PAK 3 (PAK3, Homo sapiens, UniProt O75914)", "remaining activity": "102%"}
{"target": "Rho-associated protein kinase 1 (ROCK1, Homo sapiens, UniProt Q13464)", "remaining activity": "92.2%"}
{"target": "Serine/threonine-protein kinase MARK2 (MARK2, Homo sapiens, UniProt Q7KZI7)", "remaining activity": "53.1%"}
{"target": "Calcium/calmodulin-dependent protein kinase type 1B (PNCK, Homo sapiens, UniProt Q6P2M8)", "remaining activity": "100%"}
{"data": "Set 2", "target": "Histamine H2 receptor (HRH2, Homo sapiens, UniProt P25021)", "effect on": "ligand displacement", "tested at": "10 µM", "sequence of UniProt P25021 (whole entry, looked up)": "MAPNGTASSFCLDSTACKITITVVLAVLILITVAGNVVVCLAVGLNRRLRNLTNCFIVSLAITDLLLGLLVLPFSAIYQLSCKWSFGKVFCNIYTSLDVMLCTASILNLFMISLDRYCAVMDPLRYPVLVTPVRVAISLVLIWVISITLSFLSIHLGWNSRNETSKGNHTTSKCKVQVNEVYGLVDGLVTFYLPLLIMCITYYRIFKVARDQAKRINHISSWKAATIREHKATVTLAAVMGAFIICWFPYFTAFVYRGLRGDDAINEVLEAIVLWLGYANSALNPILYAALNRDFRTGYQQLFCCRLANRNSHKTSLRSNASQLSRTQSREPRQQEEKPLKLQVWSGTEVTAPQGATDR"}
{"Structure (SMILES)": "COc1cc(N[C@@H]2CCCC[C@]2(O)C(F)(F)F)ccc1F", "inhibition": "89%"}
{"Structure (SMILES)": "O=C(NS(=O)(=O)c1ccc(NCC2CCOCC2)c([N+](=O)[O-])c1)c1ccc(N2CCN(Cc3ccc(C(F)(F)F)cc3-c3ccc(Cl)cc3)CC2)cc1Oc1cnc2[nH]ccc2c1", "inhibition": "8.95%"}
{"Structure (SMILES)": "Nc1nc(NCc2ccccc2)nc(-c2cccc(CO)c2)n1", "inhibition": "6.14%"}
{"Structure (SMILES)": "NC(=O)c1ccc2nc(-c3ccc(C4(N)CCC4)cc3)c(-c3ccccc3)n2n1", "inhibition": "0.95%"}
{"Structure (SMILES)": "Cc1ccc(-c2cnc([C@@]3(O)CC[C@H](C(=O)O)C(C)(C)C3)s2)cc1Nc1cccc(C(F)(F)F)n1", "inhibition": "8.65%"}
{"Structure (SMILES)": "Cc1noc([C@H]2C[C@@H](c3ccc(C(F)(F)F)cc3)CN(C(=O)N3CCS(=O)(=O)C3)C2)n1", "inhibition": "-11.8%"}
{"Structure (SMILES)": "O=C(Nc1ccc(Oc2ccc(F)cc2)cc1)N1CCc2ncccc2[C@H]1c1ccc(F)cc1", "inhibition": "7.29%"}
{"Structure (SMILES)": "c1ccc(N2CCN(Cc3nc4ccccc4[nH]3)CC2)nc1", "inhibition": "31.2%"}
{"Structure (SMILES)": "c1ccc(C2CCN(c3cnc4c(N5CCOCC5)nccn34)CC2)cc1", "inhibition": "-11%"}
{"Structure (SMILES)": "CS(=O)(=O)N1CCCC(NC(=O)[C@H](CCC2CCCCC2)NC(=O)c2ccc(CNC(=O)c3cnc4ccccn34)cc2)C1 (some centres unmarked)", "inhibition": "-15.1%"}
{"Structure (SMILES)": "O=c1nc(-c2ccccn2)sc2ccccc12", "inhibition": "24.4%"}
{"Structure (SMILES)": "CC1CCN(c2ccnc(NCc3cn(C)cn3)n2)CC1", "inhibition": "28.6%"}
{"Structure (SMILES)": "Cc1cc(Nc2nccc(C)n2)cc(-c2cnc([C@@]3(O)CC[C@H](C(=O)O)C(C)(C)C3)s2)c1", "inhibition": "3.06%"}
{"Structure (SMILES)": "CCC(F)(F)c1cc(N2CCC(S(C)(=O)=O)CC2)nc2sc(C(N)=O)c(N)c12", "inhibition": "-16.7%"}
{"Structure (SMILES)": "COc1cccc(NC(=O)c2nc3scc(CN(C)Cc4ccccc4)c3c(=O)[nH]2)c1", "inhibition": "30.7%"}
{"Structure (SMILES)": "CC(=O)Nc1ncc(CN2CCC[C@H](Cc3cc(C)nc(C)c3)C2)s1", "inhibition": "3.45%"}
{"Structure (SMILES)": "CC(=O)N1CCC(c2ccc(C(=O)NC3=NCCN3)cc2C(F)(F)F)CC1", "inhibition": "-9.37%"}
{"Structure (SMILES)": "CN1CCN(c2cnc3c(C4CCN(C(=O)c5ccc(OC(F)(F)F)cc5N)CC4)ncnc3c2)CC1", "inhibition": "31.2%"}
{"Structure (SMILES)": "COc1cc(-c2cn(C3CCc4c(F)cccc4N(CC(F)(F)F)C3=O)nn2)ccc1-n1cnc(C)c1 (centres unmarked)", "inhibition": "51.8%"}
{"Structure (SMILES)": "CNC(=O)Nc1ccc2c(c1)CC[C@]21OC(=O)N(CC(=O)N(Cc2ccc(F)cc2)[C@@H](C)C(F)(F)F)C1=O", "inhibition": "28.2%"}
{"Structure (SMILES)": "CN1CCN(C(=O)C(C)(C)c2ccc(C(=O)Nc3cn4cc(-c5cc(C(C)(C)C)cc(C(C)(C)C)c5)ccc4n3)cc2)CC1", "inhibition": "86.8%"}
{"Structure (SMILES)": "O=C(N[C@H]1CCCCC/C=C\\C2C[C@@]2(C(=O)O)NC(=O)[C@@H]2C[C@@H](Oc3ccncc3)CN2C1=O)OC1CCCC1 (some centres unmarked)", "inhibition": "15.6%"}
{"Structure (SMILES)": "CN1CCN(c2ccnc(NCCc3ccccc3)n2)CC1", "inhibition": "95.6%"}
{"Structure (SMILES)": "CNC(=N)NCCC[C@H](NC(=O)[C@H](CC(C)C)NC(=O)NNC(=O)[C@H](Cc1ccccc1)NC(=O)[C@H](CO)NC(=O)[C@H](CC(N)=O)NC(=O)[C@@H](Cc1ccncc1)NC(=O)[C@H](N)Cc1ccc(O)cc1)C(=O)N[C@@H](Cc1ccccc1)C(N)=O", "inhibition": "4.38%"}
{"data": "Set 3", "target": "PABPC1L2, full length, GST fusion (mouse, UniProt A0ABA7IW68)", "method": "RNAcompete", "molecule type": "RNA", "medium": "in vitro", "tested at": "20 nM", "notes": "7-mer, probes averaged, single round", "relative to": "mean of 7-mers", "direction": "higher = stronger binding", "Target sequence (chain)": "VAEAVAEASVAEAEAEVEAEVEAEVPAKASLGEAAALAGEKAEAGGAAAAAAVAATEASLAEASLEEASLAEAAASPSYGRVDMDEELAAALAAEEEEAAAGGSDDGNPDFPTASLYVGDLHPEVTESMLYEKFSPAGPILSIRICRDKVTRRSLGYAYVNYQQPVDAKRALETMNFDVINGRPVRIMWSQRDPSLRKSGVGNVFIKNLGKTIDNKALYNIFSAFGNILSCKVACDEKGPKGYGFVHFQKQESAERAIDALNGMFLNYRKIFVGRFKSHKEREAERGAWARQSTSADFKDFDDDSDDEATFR"}
{"Sequence": "AACAGAU", "7-mer Z-score": 0.793}
{"Sequence": "GAGAUAA", "7-mer Z-score": 0.499}
{"Sequence": "CGCGCCG", "7-mer Z-score": -0.329}
{"Sequence": "AUGGCGA", "7-mer Z-score": 0.0497}
{"Sequence": "GUGUACG", "7-mer Z-score": -0.235}
{"Sequence": "GACGGUC", "7-mer Z-score": -0.347}
{"Sequence": "AGCGUUA", "7-mer Z-score": -0.171}
{"Sequence": "GCAAGUA", "7-mer Z-score": -0.0609}
{"data": "Set 4", "target": "ABI1, truncated, D143A, DHFR fusion (Arabidopsis thaliana, UniProt P49597)", "method": "DHFR PCA, dose-response", "medium": "yeast", "notes": "Hill fit, mean, not affinity", "together with": "(+)-ABA, dose series", "direction": "lower = more sensitive", "starting sequence": "PYL1, truncated, DHFR fusion (Arabidopsis thaliana, UniProt Q8VZS8); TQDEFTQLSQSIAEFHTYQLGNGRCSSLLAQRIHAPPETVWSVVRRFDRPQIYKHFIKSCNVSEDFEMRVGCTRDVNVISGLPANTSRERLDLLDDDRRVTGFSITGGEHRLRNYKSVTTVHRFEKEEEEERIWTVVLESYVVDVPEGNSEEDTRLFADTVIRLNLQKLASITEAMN"}
{"Variant": "V143T", "ABA EC50": "7.91 µM"}
{"Variant": "R24V", "ABA EC50": "2.76 µM"}
{"Variant": "T119R", "ABA EC50": "738 µM"}
{"Variant": "E64N", "ABA EC50": "2.49 µM"}
{"Variant": "H122E", "ABA EC50": "20.8 µM"}
{"Variant": "I12Y", "ABA EC50": "88.1 µM"}
{"Variant": "R111G", "ABA EC50": "160 µM"}
{"Variant": "Q31Y", "ABA EC50": "33.9 µM"}
{"note": "For quick reference, copied from above (set 3):"}
{"Sequence": "AACAGAU", "7-mer Z-score": 0.793}
{"Sequence": "GCAAGUA", "7-mer Z-score": -0.0609}
{"Sequence": "AUGGCGA", "7-mer Z-score": 0.0497}
{"Sequence": "GAGAUAA", "7-mer Z-score": 0.499}
{"Sequence": "GACGGUC", "7-mer Z-score": -0.347}
{"Sequence": "CGCGCCG", "7-mer Z-score": -0.329}
